{"data": "Values quoted from earlier work as cited in several papers"}
{"Substance": "Nc1ncnc2c1ncn2[C@@H]1O[C@H](COP(=O)(O)OP(=O)(O)OP(=O)(O)O)[C@@H](O)[C@H]1O", "target or system": "dnaK (Escherichia coli, UniProt P0A6Y8, E213C/T22C)", "assay": "tryptophan fluorescence decrease", "setting": "25 °C", "measurement": "maximum rate", "value": "≤ 1.5 s⁻¹"}
{"Substance": "ClC1=C(Cl)[C@]2(Cl)[C@@H]3[C@@H]4C[C@@H]([C@H]5O[C@@H]45)[C@@H]3[C@@]1(Cl)C2(Cl)Cl", "measurement": "log Kow", "value": 6.2}
{"Substance": "c1c[nH]cn1", "target or system": "sperm whale metmyoglobin H64A", "setting": "pH 7", "measurement": "apparent association rate constant", "value": "1e+06 M⁻¹ s⁻¹"}
{"Substance": "FHYQDPFPL", "target or system": "HLA class I histocompatibility antigen, B alpha chain, allele B*15:09 (Homo sapiens, UniProt P01889)", "assay": "peptide-MHC binding", "test system": "peptide", "measurement": "IC50", "value": "1 nM"}
{"Substance": "Cl.N=C(CC(O)c1cc2c(F)cc(F)cc2c2cc(C(F)(F)F)ccc12)Nc1ccc(F)c(F)c1 (centres unmarked)", "target or system": "Plasmodium berghei", "test system": "ANKA, mouse", "setting": "oral, 50 mg/kg, 4 doses", "measurement": "mean survival time", "value": "30 days"}
{"Substance": "ClC(Cl)=C(c1ccc(Cl)cc1)c1ccc(Cl)cc1", "measurement": "log Kow", "value": 6.51}
{"Substance": "N/C(CC(O)c1cc2c(F)cc(F)cc2c2cc(C(F)(F)F)ccc12)=N\\c1ccc(F)cc1 (centres unmarked)", "target or system": "Plasmodium falciparum", "assay": "cell growth", "test system": "Dd2 T648M mutant", "measurement": "IC50", "value": "13 nM"}
{"Substance": "Cc1ccc(C(=O)Nc2ccc(CN3CCN(C)CC3)c(C(F)(F)F)c2)cc1C#Cc1cnc2cccnn12", "target or system": "MCF-7", "measurement": "IC50", "value": "4510 nM"}
{"note": "A few entries again:"}
{"Substance": "Cc1ccc(C(=O)Nc2ccc(CN3CCN(C)CC3)c(C(F)(F)F)c2)cc1C#Cc1cnc2cccnn12", "target or system": "MCF-7", "measurement": "IC50", "value": "4510 nM"}
